Assay results collected from several papers.
Compare with care: the assays were run in different laboratories. pEC50: −log10 of the molar value.
Chain of UniProt P29597 (whole entry, looked up): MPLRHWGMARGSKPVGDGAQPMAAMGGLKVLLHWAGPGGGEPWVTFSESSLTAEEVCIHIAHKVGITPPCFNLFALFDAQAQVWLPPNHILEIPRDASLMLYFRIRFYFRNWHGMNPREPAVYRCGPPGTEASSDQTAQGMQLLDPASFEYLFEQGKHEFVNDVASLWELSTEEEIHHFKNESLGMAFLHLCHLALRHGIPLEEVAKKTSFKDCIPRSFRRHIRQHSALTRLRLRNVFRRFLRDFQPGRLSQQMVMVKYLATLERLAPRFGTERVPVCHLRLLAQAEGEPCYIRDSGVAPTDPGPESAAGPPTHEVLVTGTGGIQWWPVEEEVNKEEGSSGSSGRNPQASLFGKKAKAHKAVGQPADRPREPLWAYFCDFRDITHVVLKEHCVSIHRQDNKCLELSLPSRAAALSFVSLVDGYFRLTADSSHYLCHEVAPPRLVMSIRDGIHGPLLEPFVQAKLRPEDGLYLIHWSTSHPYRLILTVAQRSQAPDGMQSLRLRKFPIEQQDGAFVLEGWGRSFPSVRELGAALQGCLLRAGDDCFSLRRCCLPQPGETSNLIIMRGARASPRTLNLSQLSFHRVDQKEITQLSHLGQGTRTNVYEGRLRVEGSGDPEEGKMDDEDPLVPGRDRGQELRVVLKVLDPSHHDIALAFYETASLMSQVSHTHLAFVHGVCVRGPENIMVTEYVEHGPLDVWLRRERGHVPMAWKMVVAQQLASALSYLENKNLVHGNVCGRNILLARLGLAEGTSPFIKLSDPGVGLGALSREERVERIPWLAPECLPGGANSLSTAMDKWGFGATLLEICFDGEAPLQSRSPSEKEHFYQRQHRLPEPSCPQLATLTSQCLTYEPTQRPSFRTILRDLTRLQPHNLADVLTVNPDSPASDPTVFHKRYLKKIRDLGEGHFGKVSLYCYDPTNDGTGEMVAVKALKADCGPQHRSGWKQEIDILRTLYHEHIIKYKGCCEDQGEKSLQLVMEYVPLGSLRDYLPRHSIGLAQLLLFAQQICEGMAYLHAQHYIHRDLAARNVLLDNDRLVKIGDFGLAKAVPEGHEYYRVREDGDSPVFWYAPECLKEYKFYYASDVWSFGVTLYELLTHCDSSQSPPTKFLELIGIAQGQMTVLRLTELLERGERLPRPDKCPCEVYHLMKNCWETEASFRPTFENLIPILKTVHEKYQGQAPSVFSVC
Chain of UniProt Q16620 (whole entry, looked up): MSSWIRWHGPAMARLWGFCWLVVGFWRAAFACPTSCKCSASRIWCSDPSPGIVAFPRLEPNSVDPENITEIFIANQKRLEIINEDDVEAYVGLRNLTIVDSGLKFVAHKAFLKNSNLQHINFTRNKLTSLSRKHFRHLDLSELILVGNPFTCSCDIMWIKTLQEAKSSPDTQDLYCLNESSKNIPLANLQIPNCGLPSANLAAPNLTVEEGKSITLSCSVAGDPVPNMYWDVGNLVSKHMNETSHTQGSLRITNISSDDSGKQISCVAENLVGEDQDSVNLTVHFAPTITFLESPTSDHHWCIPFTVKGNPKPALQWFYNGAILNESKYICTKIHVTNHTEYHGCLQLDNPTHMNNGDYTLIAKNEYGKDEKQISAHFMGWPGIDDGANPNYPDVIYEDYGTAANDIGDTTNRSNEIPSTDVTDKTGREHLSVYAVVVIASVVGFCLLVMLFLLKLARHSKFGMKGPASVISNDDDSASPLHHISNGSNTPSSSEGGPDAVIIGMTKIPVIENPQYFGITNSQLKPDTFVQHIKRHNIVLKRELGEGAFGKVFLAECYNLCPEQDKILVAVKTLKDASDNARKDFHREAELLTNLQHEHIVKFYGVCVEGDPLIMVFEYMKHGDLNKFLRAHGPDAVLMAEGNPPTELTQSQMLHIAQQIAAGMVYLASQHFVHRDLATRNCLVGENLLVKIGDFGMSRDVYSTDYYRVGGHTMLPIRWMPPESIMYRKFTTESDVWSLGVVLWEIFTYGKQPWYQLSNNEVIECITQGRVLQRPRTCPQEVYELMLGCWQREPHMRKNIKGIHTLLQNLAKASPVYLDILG
Chain of UniProt Q04912 (whole entry, looked up): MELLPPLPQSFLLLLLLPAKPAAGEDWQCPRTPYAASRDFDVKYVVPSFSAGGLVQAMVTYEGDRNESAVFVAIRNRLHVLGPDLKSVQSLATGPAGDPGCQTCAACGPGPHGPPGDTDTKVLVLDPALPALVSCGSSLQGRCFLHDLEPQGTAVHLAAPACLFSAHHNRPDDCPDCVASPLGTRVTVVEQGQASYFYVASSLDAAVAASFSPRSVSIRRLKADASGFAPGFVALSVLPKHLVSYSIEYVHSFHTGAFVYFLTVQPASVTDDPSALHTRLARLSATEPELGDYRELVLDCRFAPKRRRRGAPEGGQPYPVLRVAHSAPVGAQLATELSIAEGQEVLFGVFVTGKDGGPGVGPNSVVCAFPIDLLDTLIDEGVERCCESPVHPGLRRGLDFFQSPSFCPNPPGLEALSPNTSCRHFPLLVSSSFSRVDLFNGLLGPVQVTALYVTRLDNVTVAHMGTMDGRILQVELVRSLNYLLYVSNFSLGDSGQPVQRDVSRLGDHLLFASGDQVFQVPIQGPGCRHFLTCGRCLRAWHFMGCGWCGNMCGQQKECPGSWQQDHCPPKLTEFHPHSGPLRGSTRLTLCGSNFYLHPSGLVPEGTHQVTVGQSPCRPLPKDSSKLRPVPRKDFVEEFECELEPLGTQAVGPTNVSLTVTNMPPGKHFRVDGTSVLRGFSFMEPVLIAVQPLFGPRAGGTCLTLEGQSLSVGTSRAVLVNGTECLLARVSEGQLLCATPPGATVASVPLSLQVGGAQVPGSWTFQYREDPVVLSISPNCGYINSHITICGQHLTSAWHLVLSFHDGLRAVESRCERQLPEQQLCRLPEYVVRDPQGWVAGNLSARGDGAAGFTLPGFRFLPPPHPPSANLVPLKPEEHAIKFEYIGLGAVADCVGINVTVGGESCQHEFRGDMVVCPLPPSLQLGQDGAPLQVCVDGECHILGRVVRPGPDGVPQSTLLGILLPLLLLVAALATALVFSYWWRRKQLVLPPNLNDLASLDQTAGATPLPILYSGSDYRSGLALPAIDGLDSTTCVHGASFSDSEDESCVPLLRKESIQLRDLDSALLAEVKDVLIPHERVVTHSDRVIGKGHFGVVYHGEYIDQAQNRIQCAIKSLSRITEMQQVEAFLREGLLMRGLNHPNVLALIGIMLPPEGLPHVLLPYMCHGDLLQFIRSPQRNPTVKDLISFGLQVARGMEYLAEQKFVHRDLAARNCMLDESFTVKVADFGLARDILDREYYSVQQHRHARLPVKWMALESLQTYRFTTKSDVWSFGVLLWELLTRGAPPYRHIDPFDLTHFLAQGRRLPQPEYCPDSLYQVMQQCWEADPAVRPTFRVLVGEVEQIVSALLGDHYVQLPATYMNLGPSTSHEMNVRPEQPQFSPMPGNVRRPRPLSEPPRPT

Structure (SMILES) = CN1CCCN(c2ncc(-c3ccc4nncc(Nc5cnccn5)c4c3)cn2)CC1; tested on = Trypanosoma cruzi; assay = parasite growth; test system = C2C12; setting = intracellular, amastigote; quantity = pEC50; result = < 5.00
Structure (SMILES) = CCCCC(=O)Nc1ccc(-c2ccc3ncn(CCC)c(=O)c3c2)cn1; tested on = Hepatocyte growth factor receptor (MET, Homo sapiens, UniProt P08581, M1250T); assay = binding, competition with immobilised ligand; setting = 0.5 µM; quantity = remaining binding; result = 87%
Structure (SMILES) = Cc1ccc(N(O)N=Nc2ccc(S(=O)(=O)Nc3cc(C)on3)cc2)cc1; assay = ABTS scavenging; setting = 180 µg/mL; quantity = inhibition; result = 40.2%
Structure (SMILES) = Cc1cccc(Oc2ccc(NC(=O)CNc3ccccc3N3CCCC3=O)cc2)c1; tested on = Plasmodium falciparum; assay = parasite growth; test system = 3D7; setting = 72 h, blood stage; quantity = pEC50; result = < 5.00
Structure (SMILES) = N#Cc1ccc2cc[nH]c2c1; tested on = Cryptosporidium parvum; assay = parasite growth; test system = HCT-8; setting = 24 h, intracellular; quantity = pEC50; result = 3.84
Structure (SMILES) = CCCCCNc1c2c([nH]c(=O)c1C(=O)OCC)CCC2; tested on = Human immunodeficiency virus 1; assay = viral replication, inhibitor; test system = IIIB; setting = 72 h; quantity = pEC50; result = 4.97
Structure (SMILES) = COc1cc(CNC(=O)c2ccccc2C)cc(Br)c1OC; tested on = Porcine epidemic diarrhea virus; assay = viral replication, inhibitor, qPCR; test system = Vero C1008; quantity = pEC50; result = 5.06
Structure (SMILES) = COc1cccc2cc[nH]c12; tested on = Cryptosporidium parvum; assay = parasite growth; test system = HCT-8; setting = 24 h, intracellular; quantity = pEC50; result = 3.52
Structure (SMILES) = C=CC(=O)N1CCC(COCC(=O)N2CCN(c3nc(-c4cnc(N)nc4C(F)F)nc(N4CCOC[C@@H]4C)n3)CC2)CC1; tested on = Macrophage-stimulating protein receptor (MST1R, Homo sapiens, UniProt Q04912); assay = binding, competition with immobilised ligand; setting = 1 µM; quantity = remaining binding; result = 100%
Structure (SMILES) = CCCCCCNc1c2c([nH]c(=O)c1C(=O)OCC)CCC2; tested on = Human immunodeficiency virus 1; assay = viral replication, inhibitor; test system = IIIB; setting = 72 h; quantity = pEC50; result = 4.43
Structure (SMILES) = COc1ccc(Nc2cnnc3cc(-c4cnc(N5CCN(C)CC5)nc4)ccc23)cc1Cl; tested on = Trypanosoma cruzi; assay = parasite growth; test system = C2C12; setting = intracellular, amastigote; quantity = pEC50; result = 5.18
Structure (SMILES) = COc1cc(-c2cncc3c2CN(C)Cc2cc(N4CCNCC4)ccc2-3)cc(OC)c1OC; tested on = BDNF/NT-3 growth factors receptor (NTRK2, Homo sapiens, UniProt Q16620); assay = enzyme activity, inhibitor; setting = 1 µM; quantity = remaining activity; result = 92%
Structure (SMILES) = CN(CC(=O)Nc1ccc(N(C)c2ccc(Cl)c(F)c2)cc1)c1ccccc1N1CCCC1=O; tested on = Plasmodium falciparum; assay = parasite growth; test system = 3D7; setting = 72 h, blood stage; quantity = pEC50; result = 7.08
Structure (SMILES) = CCOC(=O)c1c(NCCC2CC2)c2c([nH]c1=O)CCC2; tested on = Human immunodeficiency virus 1; assay = viral replication, inhibitor; test system = IIIB; setting = 72 h; quantity = pEC50; result = 4.69
Structure (SMILES) = N#Cc1cccc2[nH]ccc12; tested on = Cryptosporidium parvum; assay = parasite growth; test system = HCT-8; setting = 24 h, intracellular; quantity = pEC50; result = 3.71
Structure (SMILES) = CCOC(=O)c1c(NC)c2c([nH]c1=O)CCC2; tested on = Human immunodeficiency virus 1; assay = viral replication, inhibitor; test system = IIIB; setting = 72 h; quantity = pEC50; result = < 4.00
Structure (SMILES) = Cc1cccc(N(O)N=Nc2ccc(S(=O)(=O)Nc3onc(C)c3C)cc2)c1; assay = ABTS scavenging; setting = 240 µg/mL; quantity = inhibition; result = 69.2%
Structure (SMILES) = Cc1cc([C@@H](C)Nc2ccccc2C(=O)O)c2nc(N3CCC(F)(F)CC3)c(C#N)c(=O)n2c1; tested on = Non-receptor tyrosine-protein kinase TYK2, JH1 (TYK2, Homo sapiens, UniProt P29597); assay = binding, competition with immobilised ligand; setting = 10 µM; quantity = remaining binding; result = 90%
Structure (SMILES) = CCOC(=O)c1c(NCC(C)C)c2c([nH]c1=O)CCC2; tested on = Human immunodeficiency virus 1; assay = viral replication, inhibitor; test system = IIIB; setting = 72 h; quantity = pEC50; result = 6.27
Structure (SMILES) = Cc1ccc(N(c2ccc(NC(=O)CN(C)c3ccccc3N3CCCC3=O)cn2)C(C)C)cc1; tested on = Plasmodium falciparum; assay = parasite growth; test system = 3D7; setting = 72 h, blood stage; quantity = pEC50; result = 8.52
Structure (SMILES) = N#Cc1cccc2cc[nH]c12; tested on = Cryptosporidium parvum; assay = parasite growth; test system = HCT-8; setting = 24 h, intracellular; quantity = pEC50; result = 3.69
Structure (SMILES) = CNc1ncc2c(/C=C/C(=O)N3CCC(OC)CC3)nn(Cc3cccc(C(F)(F)F)c3)c2n1; tested on = Serine/threonine-protein kinase pim-3 (PIM3, Homo sapiens, UniProt Q86V86); assay = enzyme activity, inhibitor, radiometric; setting = 1 µM; quantity = remaining activity; result = 88%
Structure (SMILES) = N#Cc1ccc2[nH]ccc2c1; tested on = Cryptosporidium parvum; assay = parasite growth; test system = HCT-8; setting = 24 h, intracellular; quantity = pEC50; result = 3.97
Structure (SMILES) = Cc1ccc(N(C)c2ccc(NC(=O)CN(C)c3ccc(F)cc3N3CCCC3=O)cc2)cc1; tested on = Plasmodium falciparum; assay = parasite growth; test system = 3D7; setting = 72 h, blood stage; quantity = pEC50; result = 7.80
Structure (SMILES) = Oc1cccc2cc[nH]c12; tested on = Cryptosporidium parvum; assay = parasite growth; test system = HCT-8; setting = 24 h, intracellular; quantity = pEC50; result = 3.34
Structure (SMILES) = Cc1ccc(N(C)c2ccc(NC(=O)CN(C)c3ccccc3N3CCCC3=O)nc2)cc1; tested on = Plasmodium falciparum; assay = parasite growth; test system = 3D7; setting = 72 h, blood stage; quantity = pEC50; result = 7.00

A few entries again:
Structure (SMILES) = Cc1cc([C@@H](C)Nc2ccccc2C(=O)O)c2nc(N3CCC(F)(F)CC3)c(C#N)c(=O)n2c1; tested on = Non-receptor tyrosine-protein kinase TYK2, JH1 (TYK2, Homo sapiens, UniProt P29597); assay = binding, competition with immobilised ligand; setting = 10 µM; quantity = remaining binding; result = 90%
Structure (SMILES) = CCOC(=O)c1c(NCC(C)C)c2c([nH]c1=O)CCC2; tested on = Human immunodeficiency virus 1; assay = viral replication, inhibitor; test system = IIIB; setting = 72 h; quantity = pEC50; result = 6.27
Structure (SMILES) = Cc1ccc(N(c2ccc(NC(=O)CN(C)c3ccccc3N3CCCC3=O)cn2)C(C)C)cc1; tested on = Plasmodium falciparum; assay = parasite growth; test system = 3D7; setting = 72 h, blood stage; quantity = pEC50; result = 8.52
Structure (SMILES) = N#Cc1cccc2cc[nH]c12; tested on = Cryptosporidium parvum; assay = parasite growth; test system = HCT-8; setting = 24 h, intracellular; quantity = pEC50; result = 3.69
